Measurements pooled from the literature.
A part holds a random share of what one study measured. Substitutions count along the parent as printed.

Block 1
Target: Histone acetyltransferase KAT6A, winged helix 1, GST fusion (KAT6A, Homo sapiens, UniProt Q92794, residues 1-85)
Method: protein binding microarray
Molecule type: double-stranded DNA, one strand shown
Matrix: in vitro
Concentration: not given
Setting: 8-mer, flanks averaged, mean of 2 arrays, mostly near background
Baseline: not given
Direction: higher = stronger binding
Quantity: E-score
Target sequence (chain): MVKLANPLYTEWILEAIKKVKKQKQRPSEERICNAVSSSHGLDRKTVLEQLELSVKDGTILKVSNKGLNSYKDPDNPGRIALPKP
Strand = GATATACC; value = 0.0237
Strand = GCTCCAAC; value = 0.0446
Strand = AAATGAAG; value = -0.16
Strand = GTCATTAA; value = -0.125
Strand = CACTTAGG; value = -0.242
Strand = ACTGGAAC; value = -0.13
Strand = AAACTCGT; value = -0.112
Strand = CATGGGAC; value = -0.135
Strand = AGGTACGC; value = 0.18

Block 2
Target: CCNA2, cyclin fold, Cln2 fusion (human)
Method: yeast growth competition, sequencing
Matrix: yeast
Setting: strong parent motif
Baseline: not given
Direction: higher = stronger binding
Quantity: normalised enrichment score
Starting sequence: CDKN1B docking peptide (human); PSACRNLFGPVDH
Change = C4W; value = 1.92
Change = R5Y; value = 0.346
Change = P1L; value = 3.3
Change = H13E; value = 4.32
Change = S2P; value = 3.24
Change = P10Q; value = 3.59
Change = D12Q; value = 4.08
Change = A3M; value = 2.13

Block 3
Target: PABPC1L2, full length, GST fusion (mouse, UniProt A0ABA7IW68)
Method: RNAcompete
Molecule type: RNA
Matrix: in vitro
Concentration: 20 nM
Setting: 7-mer, probes averaged, single round
Baseline: mean of 7-mers
Direction: higher = stronger binding
Quantity: 7-mer Z-score
Residues (chain): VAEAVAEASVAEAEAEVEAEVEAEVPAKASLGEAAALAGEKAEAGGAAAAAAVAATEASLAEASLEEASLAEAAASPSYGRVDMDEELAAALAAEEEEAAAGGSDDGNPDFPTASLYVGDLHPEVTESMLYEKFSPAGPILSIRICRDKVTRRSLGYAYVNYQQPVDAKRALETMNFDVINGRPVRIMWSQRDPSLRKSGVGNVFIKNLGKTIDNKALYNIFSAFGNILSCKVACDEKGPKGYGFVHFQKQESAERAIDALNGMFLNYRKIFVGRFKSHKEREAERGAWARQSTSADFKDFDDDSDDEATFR
Strand = AACUCUA; value = -0.0174
Strand = CCGAAUG; value = -0.124
Strand = CCGCUCG; value = -0.47
Strand = CGAUGGA; value = 0.166
Strand = CAACAGG; value = 0.16
Strand = UGCAAGC; value = -0.255
Strand = CUCAAGU; value = -0.3

Other studies, line by line
Substance = PhoQ, residues 284 288 289 292 302 303 SSLVEF; target = PhoP, residues 12 14 15 18 19 SPWRL (Escherichia coli, UniProt P23836); assay = Sort-seq, refers to: YFP reporter; system = E. coli; setting = PhoQ-PhoP variant library, together with: 10 µM Mg2+; how to read = baseline: high Mg2+ state, higher = stronger signaling; quantity = fold induction; value = 1.14

A few entries again (block 2):
Change = R5Y; value = 0.346
Change = P1L; value = 3.3
Change = P10Q; value = 3.59
